{"data": "Assay results gathered from unrelated publications", "note": "A part holds a random share of what one study measured.", "sequence of UniProt P51955 (whole entry, looked up)": "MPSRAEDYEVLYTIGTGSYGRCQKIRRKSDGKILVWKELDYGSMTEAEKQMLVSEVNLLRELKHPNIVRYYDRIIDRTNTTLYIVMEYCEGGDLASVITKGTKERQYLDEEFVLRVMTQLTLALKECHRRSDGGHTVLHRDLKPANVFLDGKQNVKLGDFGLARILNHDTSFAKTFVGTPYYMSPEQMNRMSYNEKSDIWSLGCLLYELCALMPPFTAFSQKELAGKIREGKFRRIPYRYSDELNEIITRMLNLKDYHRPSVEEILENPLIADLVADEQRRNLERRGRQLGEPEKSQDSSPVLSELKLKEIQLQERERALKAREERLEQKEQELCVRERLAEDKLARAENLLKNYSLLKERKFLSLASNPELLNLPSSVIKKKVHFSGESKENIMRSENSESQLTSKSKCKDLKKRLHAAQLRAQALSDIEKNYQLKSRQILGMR"}
{"data": "Block 1", "target": "PABPC1L2, full length, GST fusion (mouse, UniProt A0ABA7IW68)", "technique": "RNAcompete", "form": "RNA", "matrix": "in vitro", "concentration": "20 nM", "notes": "7-mer, probes averaged, single round", "baseline": "mean of 7-mers", "reading": "higher = stronger binding", "Residues (chain)": "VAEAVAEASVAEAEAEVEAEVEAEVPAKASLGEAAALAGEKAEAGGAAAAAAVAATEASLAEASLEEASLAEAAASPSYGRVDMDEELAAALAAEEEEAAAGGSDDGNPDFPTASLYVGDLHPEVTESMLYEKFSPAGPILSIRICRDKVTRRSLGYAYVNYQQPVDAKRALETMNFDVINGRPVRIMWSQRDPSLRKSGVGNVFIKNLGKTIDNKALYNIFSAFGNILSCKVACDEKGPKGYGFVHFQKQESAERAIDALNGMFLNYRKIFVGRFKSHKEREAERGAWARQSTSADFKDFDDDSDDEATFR"}
{"Oligonucleotide": "GCCGCCU", "7-mer Z-score": -0.371}
{"Oligonucleotide": "UGUUUAA", "7-mer Z-score": -0.166}
{"Oligonucleotide": "GCCUGGC", "7-mer Z-score": -0.213}
{"Oligonucleotide": "CGGUGGG", "7-mer Z-score": -0.0174}
{"Oligonucleotide": "AUCUACU", "7-mer Z-score": -0.215}
{"Oligonucleotide": "UUGGCCU", "7-mer Z-score": -0.423}
{"Oligonucleotide": "AACAAGG", "7-mer Z-score": 0.972}
{"Oligonucleotide": "UUUAAAU", "7-mer Z-score": 0.552}
{"data": "Block 2", "target": "POU domain, class 6, transcription factor 1, POU and homeodomain (POU6F1, Homo sapiens, UniProt Q14863, residues 311-611)", "technique": "protein-binding microarray", "form": "hairpin DNA", "matrix": "in vitro", "concentration": "not given", "notes": "whole hairpin DNA, median over replicate spots", "baseline": "not given", "reading": "higher = stronger binding", "all sequences stand within": "GAGGCC … GGCCTCACACTCTT", "Construct (chain)": "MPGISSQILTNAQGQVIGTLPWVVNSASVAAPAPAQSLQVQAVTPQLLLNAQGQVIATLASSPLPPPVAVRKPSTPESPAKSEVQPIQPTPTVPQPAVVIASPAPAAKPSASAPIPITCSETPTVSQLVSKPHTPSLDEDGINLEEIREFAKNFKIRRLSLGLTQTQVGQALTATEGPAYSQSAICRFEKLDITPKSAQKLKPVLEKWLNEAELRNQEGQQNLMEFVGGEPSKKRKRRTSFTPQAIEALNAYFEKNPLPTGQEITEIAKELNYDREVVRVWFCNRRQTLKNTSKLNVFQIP"}
{"Oligonucleotide": "ATAATTCGGTGCCTCCTGGCACCGAATTAT (5mC at 13)", "median fluorescence [a.u.]": 513}
{"Oligonucleotide": "ATAAGTAGGTGCCTCCTGGCACCTACTTAT", "median fluorescence [a.u.]": 902}
{"Oligonucleotide": "ATAATGAGTTGCCTCCTGGCAACTCATTAT", "median fluorescence [a.u.]": 2590}
{"Oligonucleotide": "CGAATTAGGTGCCTCCTGGCACCTAATTCG", "median fluorescence [a.u.]": 417}
{"Oligonucleotide": "ATAATGAGCGGCCTCCTGGCCGCTCATTAT (5mC at 27)", "median fluorescence [a.u.]": 1990}
{"Oligonucleotide": "ATAATTACGTGCCTCCTGGCACGTAATTAT (5mC at 28)", "median fluorescence [a.u.]": 1070}
{"Oligonucleotide": "CTAATTAGGTGCCTCCTGGCACCTAATTAG", "median fluorescence [a.u.]": 1530}
{"Oligonucleotide": "ATCGTGAGGTGCCTCCTGGCACCTCACGAT (5mC at 9 33)", "median fluorescence [a.u.]": 322}
{"data": "Other studies, line by line"}
{"Substance": "NOP14 (Homo sapiens, UniProt P78316)", "target or system": "NOC4L (Homo sapiens, UniProt Q9BVI4)", "test": "cross-linking MS", "setting": "hits only", "endpoint": "interaction screen", "value": "cross-linked"}
{"Substance": "O=C1NC(=O)C(c2c[nH]c3ccccc23)=C1c1c[nH]c2ccccc12", "target or system": "NEK2 (Homo sapiens, UniProt P51955)", "test": "enzyme activity, inhibitor", "setting": "0.5 µM", "scale": "baseline: control", "endpoint": "remaining activity", "value": "102%"}
{"Substance": "WDR18 (Homo sapiens, UniProt Q9BV38)", "target or system": "LAS1L (Homo sapiens, UniProt Q9Y4W2)", "test": "cross-linking MS", "test system": "cell fractions", "setting": "with: DSSO", "endpoint": "cross-linked residues", "value": "K432 to K499"}
{"Substance": "KIAA0513 (Homo sapiens, UniProt O60268)", "target or system": "MTHFD1 (Homo sapiens, UniProt P11586)", "test": "cross-linking MS", "test system": "cell fractions", "setting": "with: DSSO", "endpoint": "cross-linked residues", "value": "K253 to K297"}
{"note": "For quick reference, copied from above (block 2):"}
{"Oligonucleotide": "ATAATGAGCGGCCTCCTGGCCGCTCATTAT (5mC at 27)", "median fluorescence [a.u.]": 1990}
{"Oligonucleotide": "ATAATTACGTGCCTCCTGGCACGTAATTAT (5mC at 28)", "median fluorescence [a.u.]": 1070}
{"Oligonucleotide": "CTAATTAGGTGCCTCCTGGCACCTAATTAG", "median fluorescence [a.u.]": 1530}
